# Results pooled from the literature.
# Numbered parts are unrelated; each lists some results of a single study. Substitutions count along the parent as printed.

# Study 1
# Target: RNA binding protein fox-1 homolog 2, RRM domain, GST-SBP tag (RBFOX2, Homo sapiens, UniProt O43251-10, residues 100-194)
# Technique: RNA Bind-n-Seq
# Molecule type: RNA
# Medium: in vitro
# Tested at: 365 nM
# Notes: natural RNA segment, single round, ends assumed
# Baseline: no-protein control
# Direction: higher = stronger binding
# Constant ends, left off below: GGGAGUUCUACAGUCCGACGAUC … UGGAAUUCUCGGGUGCCAA
# Construct (chain): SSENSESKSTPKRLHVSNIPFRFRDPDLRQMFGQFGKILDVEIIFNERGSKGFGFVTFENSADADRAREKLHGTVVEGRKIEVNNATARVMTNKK
Sequence,RBNS enrichment (R)
UGAGAUAUUUACAGUAUUAUUAAAGGGUUGGGCUGUUUUGCAUAACAAACUUUUUAUUGGCAUACCCAAAGAGCACAAGAUUGUCUGUCUGCUCGUUUUUAAAAAUUAAA,0.542
CCUAGUAGCAUGCAACCCAUGACUGUUUACUUCCCUAAAAGGGUUAGGUCUGUGUCCUGCACAGUGUUCAAAACCAUUAAAUGUGUUCUUUGUAGCAGGAUGGUACACAG,12
AAAUUCAAGGCCACAAAAACAAUGUUUGGGGGAAAAAAAAGAAAAAAUCAUGCCAGCUAAUCAUGUCAAGUUCACUGCCUGUCAGAUUGUUGAUAUAUACCUUCUGUAAA,0.457
CUCAGUGUGGUCCUGAGAACAGAAGCAUCUGCAUCACCUGGGAAUGUAUUAGAAAUGCAAGUUCCCAGCCCCAUCCCAGACCUACUGAAUCAGAAACUCUGGGGGCGAGG,0.504
GGUGGUGUUCUGGUAAAAUUGUUAGAAUAGCUGUAUGAAGGAAACCAGUGGGAGGAAAUGAAGUUUUCAGGAUGGUGGGAUGUGAUUUAGACAGUGCACAUGCUGUUAGG,1.6
UUUGUAAAAGCCAGGCUUGGUAGUGGGCACCUGUCAUCCCAGCACUCAGGAGGCAGGGUCAGGAGGAUUACAGGUUCAAAGCCAGUCUGGUCUAUAUUAGAAAAAGAAAA,0.631
UAAAAUUAAAAUACUAUUGGAAGUGCUUUCAACUCAGCCACAUCUUAGCUAUUAGUUCUUUGUGUUGUCUUAUCAAAGUUUAAUGGAUACAGUUCCACAGUUGUUGAUGU,0.481
CUCUCCCACCCUUCCUGAACCAUGACCACCACCAGCUCUAGGGUCGUAAUGUUGGAGAUCAGGAAUAUUGGUUGUGAUGACAAGAAAGAGCCCACUUACUCCUCCUCGUU,0.533
GUUUCAGUUGUCUUCAGAGACAAAUGUUACUUAAUCAGGAAUACAAAGUACAGAUUUUUUACAUUUUAGAGGAAGAGCACCUUGUAUAGUAAGUCUAAGUCAAGCAAGAC,0.379
UUGCUAAAGACGAGAGAGAAACCACGUGAAACCUACAUUGCUAUGUUCAUAAUUGCCAAAGCAGUAUUUAUACUAUUGUAAACAACUCGCACAUCUCUCCUGUCUGUUAG,0.357
CCCUGCUGAGGUUCAGAACUUUGAACCCUCAGGUUCUCCUGGGUUUACUUCACCUGAGGGAAUAGCCUCUCUACCUCGCAGAAAAUGUACCCUACCCCUCAAAUAUUGCC,0.659
UGGGCUCCAGUAAUGCUUUCUGGUGGGUAAAAUUCCACAUUCAGGCCACGAGAGCAUCUACAGUUUGUACUCUGGGGCUGCAGGCAUCCUGGGACGCUGUACGCAAUUCA,0.828

# Study 2
# Target: CCND1, cyclin fold, Cln2 fusion (human)
# Technique: yeast growth competition, sequencing
# Medium: yeast
# Notes: weak parent motif
# Baseline: not given
# Direction: higher = stronger binding
# Starting sequence: CDC25A docking peptide (human); PPHRRRLLFACSP
Variant,normalised enrichment score
SPHRRRLLFACSP [P1S],0.473
PPHRRRLLFACSI [P13I],0.342
PPHRRRLLFACGP [S12G],0.37
PPHRRRFLFACSP [L7F],0.412
PPHRRLLLFACSP [R6L],0.506
PPHRRRLLFWCSP [A10W],0.492
PPHRRRLLFAESP [C11E],-0.556
PPHRRRLLFACSW [P13W],-0.199
PPHRRKLLFACSP [R6K],0.0635
PPHRRRLLFACHP [S12H],0.246
PPHRRRLLFATSP [C11T],-0.499
PNHRRRLLFACSP [P2N],0.25
PPHRRRLLFACAP [S12A],0.258
PPHRRRLLFAWSP [C11W],0.17
PPHRTRLLFACSP [R5T],-0.0575
PPHRSRLLFACSP [R5S],0.257
VPHRRRLLFACSP [P1V],-0.0806
PPHRRRLLRACSP [F9R],0.465
PPHRRRLLFAYSP [C11Y],-0.0674
PPERRRLLFACSP [H3E],-0.343
PPHRRRLLFACWP [S12W],0.558
PPHRRRLIFACSP [L8I],0.14
PPHRRRLLFACLP [S12L],0.524
PPHRRHLLFACSP [R6H],0.0974
PPHRAAAAFACSP [R5A R6A L7A L8A],0.148

# Study 3
# Target: CREB5, bZIP domain (human)
# Technique: DHFR protein complementation
# Medium: yeast
# Notes: single substitutions, most at no-binding floor
# Baseline: wild-type JUN-FOS pair
# Direction: higher = stronger binding
# Starting sequence: JUN, bZIP domain (human); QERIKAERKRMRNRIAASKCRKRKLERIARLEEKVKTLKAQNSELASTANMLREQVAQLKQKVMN; partner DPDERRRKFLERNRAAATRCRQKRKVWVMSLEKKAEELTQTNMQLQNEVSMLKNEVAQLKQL
Variant,binding fitness
T48V,-0.341 natural log
E44I,-0.507 natural log
Q41M,-0.345 natural log
R30I,-0.36 natural log
L45G,-1.43 natural log
S47P,-1.38 natural log
Q55N,-0.902 natural log
E54K,-0.476 natural log
Q55P,-1.36 natural log
K36F,-0.7 natural log
A49W,-1.09 natural log
N42M,-1.01 natural log
E54D,-0.496 natural log
E32H,-0.685 natural log
E54G,-0.405 natural log

# Study 4
# Target: Ras GTPase-activating protein-binding protein 1, full length (G3BP1, Homo sapiens, UniProt Q13283)
# Chain of UniProt Q13283 (whole entry, looked up): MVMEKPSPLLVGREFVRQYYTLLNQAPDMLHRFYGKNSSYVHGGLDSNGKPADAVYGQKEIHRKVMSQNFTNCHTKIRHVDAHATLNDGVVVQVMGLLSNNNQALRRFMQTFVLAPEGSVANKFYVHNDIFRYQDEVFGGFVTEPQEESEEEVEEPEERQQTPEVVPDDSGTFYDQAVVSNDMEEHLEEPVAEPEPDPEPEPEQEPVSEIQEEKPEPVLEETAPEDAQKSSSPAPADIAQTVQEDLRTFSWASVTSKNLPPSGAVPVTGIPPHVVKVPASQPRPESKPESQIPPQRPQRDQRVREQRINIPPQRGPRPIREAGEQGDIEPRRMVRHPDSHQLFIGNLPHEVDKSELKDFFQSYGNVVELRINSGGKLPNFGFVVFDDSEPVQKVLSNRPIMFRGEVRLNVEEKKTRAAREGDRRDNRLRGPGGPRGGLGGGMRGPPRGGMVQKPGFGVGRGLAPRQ
# Technique: RNA Bind-n-Seq
# Molecule type: RNA
# Medium: in vitro
# Tested at: 200 nM
# Notes: whole 134-nt RNA, ends assumed
# With: 150 mM KCl
# Baseline: input library
# Direction: higher = stronger binding
# Constant ends, left off below: GGGAGUUCUACAGUCCGACGAUC … UGGAAUUCUCGGGUGUCAAGG
Sequence,log2 enrichment
GUCCUGUGCUACACAUCGUAUGUACCGAAUCGGUUUUUUUGGAAAAAAAGGAAAAAGGAAAGUAUUAUGUUACGCCGUUCGGAUCUGCAC,-1.18
UAGCCAAGAGUCGAAGCUAAACCAGAAGUUCAAUCUCAGCCACCUCGUGUGCGUGAACAACGACCUAGAGAACGACCUGGUUUUCCUCCU,-0.329
UCAAGUCCUGUGCUACACAUCGUAUGUACCGAAUCGGUUUUGGUUUUGGUUUUGGAAAGUAUUAUGUUACGCCGUUCGGAUCUGCACUUC,-1.18
GUCCUGUGCUACACAUCGUAUGUACCGAAUCGGGGAAAAAGGGGAAAAAGGGGAGGGGAAAGUAUUAUGUUACGCCGUUCGGAUCUGCAC,0.547
CACCGACAACACGCACCCACACAGACACAGAGGGAAGGGGUUGGGAUGGGGACAGGGUGCACAGCAGGGCGGGGUAGGACCCCAGCCCCU,1.94
GCAGGAAGUAAAAACAAAUGGAAAUGCUUCGGAUGGUGGCAGGGGUGGGGGUUGCUAAGGAAAGGGUGGGAUGGGAGUGGGUAAAGAGUU,1.57
CCUCAAGUCCUGUGCUACACAUCGUAUGUACCGAAUCGGUUUUUGGUGGUGGAAAGUAUUAUGUUACGCCGUUCGGAUCUGCACUUCCAG,-0.0475
CCUCAAGUCCUGUGCUACACAUCGUAUGUACCGAAUCGGGGCGGGGCGGCGGGAAAGUAUUAUGUUACGCCGUUCGGAUCUGCACUUCCA,0.637
CACAGACAACACGCACCCAGACAGACACAGAGGGAAGGGGUUGGGAUGGGGACAGGGUGCACAGCAGGGCGGGGUAGGACCCCAGCCCCU,2
CUCAAGUCCUGUGCUACACAUCGUAUGUACCGAAUCGGGAAAGGGAGGGUGGGAAAGUAUUAUGUUACGCCGUUCGGAUCUGCACUUCCA,1.21
CAAGUCCUGUGCUACACAUCGUAUGUACCGAAUCGGGUUGGGGUUGGGGUUGGGGAAAGUAUUAUGUUACGCCGUUCGGAUCUGCACUUC,1.09
GUCCUGUGCUACACAUCGUAUGUACCGAAUCGGGCCCCCGGGGCCCCCGGGCCCCCGGAAAGUAUUAUGUUACGCCGUUCGGAUCUGCAC,-1.63
UGUGCUACACAUCGUAUGUACCGAAUCGGGGUUUUUUUGGGGAAAAAAAGGGGUUUUUGGGGAAAGUAUUAUGUUACGCCGUUCGGAUCU,-0.428
GGCAGUAGCAGCAGCGCCGGGUCCCGUGCGGAGGUGCUCCUCGCAGAGUUGUUUCUCGAGCAGCGGCAGUUCUCACUACAGCGCCAGGAC,-1.07

# Study 5
# Target: Prothrombin, mature alpha-thrombin (F2, Homo sapiens, UniProt P00734)
# Technique: aptamer microarray, sandwich
# Molecule type: DNA with 2'F-ANA
# Medium: in vitro
# Tested at: 200 nM
# Notes: whole 15-mer aptamer, many near background
# With: Cy3 exosite-II aptamer, 400 nM
# Direction: higher = stronger binding
# Sequence: GGTTGGTGTGGTTGG
Modification,mean fluorescence intensity [a.u.]
2'F-ANA at 3 4 7 8 11 12 13 14 15,417
2'F-ANA at 4 6 12 15,481
2'F-ANA at 1 2 4 14 15,53.2
2'F-ANA at 1 3 4 7 12,445
2'F-ANA at 2 3 4 5 9 10 12 14 15,52.6
2'F-ANA at 6 8 12 13 15,627
2'F-ANA at 3 4 6 7 8 9 10 15,307
2'F-ANA at 1 2 3 4 5 6 7 9 12 13,72.8
2'F-ANA at 1 2 6 10 11,90
2'F-ANA at 2 4 5 9 13 15,49.4
2'F-ANA at 1 2 6 7 9 11 13,90.8
2'F-ANA at 1 3 6 8 10 12 13,94.4
2'F-ANA at 1 4 8 12 13 14 15,57.6
2'F-ANA at 1 2 6 9 10 11 12 14,51.5
2'F-ANA at 2 4 5 7 8 10 13 15,86.4
2'F-ANA at 2 3 4 6 8 9 10 11 12,247

# Mixed results
Substance,target,test,test system,setting,how to read,measurement,value
"PhoQ, residues 284 288 289 292 302 303 SSCCRF","PhoP, residues 12 14 15 18 19 NHFIF (Escherichia coli, UniProt P23836)","Sort-seq, refers to: YFP reporter",E. coli,"PhoQ-PhoP variant library, with: 10 µM Mg2+","baseline: high Mg2+ state, higher = stronger signaling",fold induction,8.5

# Excerpt of the above (study 5):
Modification,mean fluorescence intensity [a.u.]
2'F-ANA at 1 3 4 7 12,445
2'F-ANA at 2 3 4 5 9 10 12 14 15,52.6
2'F-ANA at 6 8 12 13 15,627
2'F-ANA at 3 4 6 7 8 9 10 15,307
2'F-ANA at 1 2 3 4 5 6 7 9 12 13,72.8
2'F-ANA at 1 2 6 10 11,90
2'F-ANA at 2 4 5 9 13 15,49.4
2'F-ANA at 1 2 6 7 9 11 13,90.8
2'F-ANA at 1 3 6 8 10 12 13,94.4
2'F-ANA at 1 4 8 12 13 14 15,57.6
2'F-ANA at 1 2 6 9 10 11 12 14,51.5
2'F-ANA at 2 4 5 7 8 10 13 15,86.4
